Assay results collected from several papers.
Protocols differ between the studies behind these lines. Values joined by “and” are separate records of one study, mostly repeats; a detail may differ.
Target: Dual specificity protein kinase TTK (TTK, Homo sapiens, UniProt P33981)
Sequence (P33981 1-857, as in one of the studies): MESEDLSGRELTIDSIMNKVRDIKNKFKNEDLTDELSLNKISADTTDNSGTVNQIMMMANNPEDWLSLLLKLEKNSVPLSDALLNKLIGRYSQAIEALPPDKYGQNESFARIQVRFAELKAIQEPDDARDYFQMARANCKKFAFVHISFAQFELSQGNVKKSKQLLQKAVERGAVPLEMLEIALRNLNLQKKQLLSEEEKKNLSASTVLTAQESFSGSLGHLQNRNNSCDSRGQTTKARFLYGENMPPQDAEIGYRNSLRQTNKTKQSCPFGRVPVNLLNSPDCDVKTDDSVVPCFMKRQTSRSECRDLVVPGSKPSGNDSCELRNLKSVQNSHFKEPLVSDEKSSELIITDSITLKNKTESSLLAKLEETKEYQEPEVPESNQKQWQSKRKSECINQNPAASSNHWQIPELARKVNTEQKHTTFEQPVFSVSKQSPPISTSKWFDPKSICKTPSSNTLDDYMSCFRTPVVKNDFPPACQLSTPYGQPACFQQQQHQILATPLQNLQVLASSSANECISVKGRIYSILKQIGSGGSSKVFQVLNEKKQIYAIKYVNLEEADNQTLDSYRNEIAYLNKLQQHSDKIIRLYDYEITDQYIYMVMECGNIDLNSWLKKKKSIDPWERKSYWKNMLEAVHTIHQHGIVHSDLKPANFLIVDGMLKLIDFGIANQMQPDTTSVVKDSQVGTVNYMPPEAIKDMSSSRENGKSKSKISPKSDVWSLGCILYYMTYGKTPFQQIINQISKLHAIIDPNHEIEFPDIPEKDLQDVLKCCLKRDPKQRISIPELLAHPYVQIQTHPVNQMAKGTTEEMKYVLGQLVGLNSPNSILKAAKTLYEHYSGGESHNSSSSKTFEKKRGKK

CN1CC[C@@H](COc2cnc(C#N)cc2-c2ccn3nc(NC(=O)C4CC4)cc3c2)C1
inhibition (enzyme activity, inhibitor; 1 µM): -17%

CCn1cc(C(=O)O)c(=O)c2c(N)c(F)c(NC3CCCCC3)cc21
inhibition (kinase activity; 0.1 µM, together with: ATP at Km): 18.5%

CCN1CCN(Cc2ccc(NC(=O)c3ccc(C)c(NC(=O)c4cncc(-c5cnn(C)c5)c4)c3)cc2C(F)(F)F)CC1
remaining binding (binding, competition with immobilised ligand; 1 µM): 54%

Cc1cccc(O[C@H]2CCC[C@@H](C(C)CNCc3ccncc3)C2)c1 (relative stereo)
inhibition (enzyme activity, inhibitor; 1 µM): -2%

Cc1ccc(C(=O)Nc2ccc(CN3CCN(C)CC3)c(C(F)(F)F)c2)cc1C#Cc1cnc2cccnn12
Hill slope (target engagement, NanoBRET; human cells): 0.113

COCC12C(=O)NC3C4(C(OC)CC1O)C1CC5(O)C(OC)C(O)C(OC(C)=O)(C1C5OC(=O)c1ccccc1)C3(O)C(OC)C24 (stereo not drawn)
remaining activity (kinase activity, inhibitor, ProQinase kinase profiling; 25 µM; reference: control): 97% and 119%

Cc1cnc2nc1Nc1cccc(c1)COC/C=C/COCc1cc(ccc1OCCN1CCOCC1)N2
remaining binding (binding, competition with immobilised ligand; 0.1 µM): 66%

C=CC(=O)Nc1cccc(-c2cnc3[nH]cc(C(=O)NC(C)(C)C)c3n2)c1
inhibition (enzyme activity, inhibitor; 0.1 µM): 0%

CCN1CCN(Cc2ccc(C(=O)Nc3ccc(C)c(NCc4cnc5[nH]ccc5c4OC)c3)cc2C(F)(F)F)CC1
remaining binding (binding, competition with immobilised ligand; 1 µM): 78%

Nc1ncc2c(n1)-c1c([nH]c3ccc(C4=CCOCC4)cc13)CCC2
remaining binding (binding, competition with immobilised ligand; 1 µM): 96%

CNC1C[S+]2CC[S+]3CC[S+](C1)[Ru-4]321([N]=C=S)[n]2c3ccc(OC)cc3c3c4c(c5cc(F)c[n+]1c5c32)C(=O)NC4=O (stereo not drawn)
remaining binding (KinomeScan; 0.1 µM; reference: untreated): 49%

CNC(=O)C[C@H](Cc1ccc(C#N)cc1)NC(=O)c1cc(-c2ccc(CN[C@H](C)c3ccc(C)cc3)o2)ccc1Cl
activity vs control (enzyme activity, inhibitor; 1 µM): 108%

NC(=O)C[C@H]1CCc2sc3ncnc(O[C@H]4CC[C@H](N5CCOCC5)CC4)c3c21
inhibition (enzyme activity, inhibitor; 10 µM): -10%

COc1cc(Nc2nccc(-c3cnn4nc(OC)ccc34)n2)cc(C(F)(F)F)c1
remaining binding (binding, competition with immobilised ligand; 1 µM): 81%

C=CC(=O)N1CCc2ccc(-n3c(=O)ccc4cnc5ccc(-c6cnn(C)c6)cc5c43)cc21
remaining binding (KINOMEscan; 1 µM; reference: DMSO control): 80%
